Published values of several laboratories.
Numbered parts are unrelated; each lists some results of a single study. “And” joins repeats or separate records; there may be more than shown.
UniProt Q9BXA7, sequence (whole entry, looked up): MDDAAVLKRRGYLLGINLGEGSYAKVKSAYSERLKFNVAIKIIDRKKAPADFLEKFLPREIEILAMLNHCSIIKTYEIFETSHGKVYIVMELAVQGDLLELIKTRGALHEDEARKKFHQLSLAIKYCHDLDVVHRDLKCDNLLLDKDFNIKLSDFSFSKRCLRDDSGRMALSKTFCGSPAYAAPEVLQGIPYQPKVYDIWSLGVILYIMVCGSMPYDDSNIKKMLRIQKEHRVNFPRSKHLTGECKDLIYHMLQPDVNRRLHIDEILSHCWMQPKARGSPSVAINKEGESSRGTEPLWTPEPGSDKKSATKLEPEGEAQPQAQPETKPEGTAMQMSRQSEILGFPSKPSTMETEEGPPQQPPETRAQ
UniProt Q8TBX8, sequence (whole entry, looked up): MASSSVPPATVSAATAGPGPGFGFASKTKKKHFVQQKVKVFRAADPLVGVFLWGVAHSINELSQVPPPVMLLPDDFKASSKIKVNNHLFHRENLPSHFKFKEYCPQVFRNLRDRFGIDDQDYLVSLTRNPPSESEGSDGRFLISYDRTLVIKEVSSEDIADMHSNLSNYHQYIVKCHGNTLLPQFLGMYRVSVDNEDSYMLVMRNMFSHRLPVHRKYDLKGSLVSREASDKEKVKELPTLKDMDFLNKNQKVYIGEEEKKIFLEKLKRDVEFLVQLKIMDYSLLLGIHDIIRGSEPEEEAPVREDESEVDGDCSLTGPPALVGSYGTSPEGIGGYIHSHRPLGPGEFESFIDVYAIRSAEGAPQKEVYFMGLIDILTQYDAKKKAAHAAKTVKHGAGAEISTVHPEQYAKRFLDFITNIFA
UniProt O94921, sequence (whole entry, looked up): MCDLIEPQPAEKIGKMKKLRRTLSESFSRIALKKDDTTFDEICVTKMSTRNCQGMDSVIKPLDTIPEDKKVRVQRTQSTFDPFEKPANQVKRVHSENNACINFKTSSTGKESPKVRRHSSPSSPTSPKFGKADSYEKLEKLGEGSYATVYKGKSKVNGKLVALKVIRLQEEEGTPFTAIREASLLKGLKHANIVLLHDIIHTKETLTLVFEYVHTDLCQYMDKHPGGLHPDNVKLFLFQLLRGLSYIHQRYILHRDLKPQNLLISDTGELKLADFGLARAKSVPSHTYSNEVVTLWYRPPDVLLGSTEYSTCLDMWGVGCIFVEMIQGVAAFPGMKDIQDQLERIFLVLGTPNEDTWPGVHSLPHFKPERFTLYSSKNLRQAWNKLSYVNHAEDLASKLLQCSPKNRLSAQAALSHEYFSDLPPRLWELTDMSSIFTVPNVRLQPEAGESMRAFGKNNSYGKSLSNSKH
UniProt P51451, sequence (whole entry, looked up): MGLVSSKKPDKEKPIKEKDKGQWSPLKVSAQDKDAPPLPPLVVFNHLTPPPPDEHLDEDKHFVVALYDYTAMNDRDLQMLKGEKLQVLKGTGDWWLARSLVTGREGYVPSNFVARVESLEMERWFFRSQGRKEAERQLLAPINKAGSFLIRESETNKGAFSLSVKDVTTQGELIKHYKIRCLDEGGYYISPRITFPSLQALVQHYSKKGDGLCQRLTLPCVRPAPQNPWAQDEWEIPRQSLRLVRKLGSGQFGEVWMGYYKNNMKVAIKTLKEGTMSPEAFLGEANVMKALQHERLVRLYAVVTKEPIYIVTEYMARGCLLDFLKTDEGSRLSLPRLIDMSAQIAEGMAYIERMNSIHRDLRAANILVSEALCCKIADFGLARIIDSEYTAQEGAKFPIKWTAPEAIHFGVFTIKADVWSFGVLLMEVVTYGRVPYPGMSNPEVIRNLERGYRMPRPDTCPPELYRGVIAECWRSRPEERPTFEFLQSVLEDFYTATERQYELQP
UniProt P10721, sequence (whole entry, unmodified, looked up): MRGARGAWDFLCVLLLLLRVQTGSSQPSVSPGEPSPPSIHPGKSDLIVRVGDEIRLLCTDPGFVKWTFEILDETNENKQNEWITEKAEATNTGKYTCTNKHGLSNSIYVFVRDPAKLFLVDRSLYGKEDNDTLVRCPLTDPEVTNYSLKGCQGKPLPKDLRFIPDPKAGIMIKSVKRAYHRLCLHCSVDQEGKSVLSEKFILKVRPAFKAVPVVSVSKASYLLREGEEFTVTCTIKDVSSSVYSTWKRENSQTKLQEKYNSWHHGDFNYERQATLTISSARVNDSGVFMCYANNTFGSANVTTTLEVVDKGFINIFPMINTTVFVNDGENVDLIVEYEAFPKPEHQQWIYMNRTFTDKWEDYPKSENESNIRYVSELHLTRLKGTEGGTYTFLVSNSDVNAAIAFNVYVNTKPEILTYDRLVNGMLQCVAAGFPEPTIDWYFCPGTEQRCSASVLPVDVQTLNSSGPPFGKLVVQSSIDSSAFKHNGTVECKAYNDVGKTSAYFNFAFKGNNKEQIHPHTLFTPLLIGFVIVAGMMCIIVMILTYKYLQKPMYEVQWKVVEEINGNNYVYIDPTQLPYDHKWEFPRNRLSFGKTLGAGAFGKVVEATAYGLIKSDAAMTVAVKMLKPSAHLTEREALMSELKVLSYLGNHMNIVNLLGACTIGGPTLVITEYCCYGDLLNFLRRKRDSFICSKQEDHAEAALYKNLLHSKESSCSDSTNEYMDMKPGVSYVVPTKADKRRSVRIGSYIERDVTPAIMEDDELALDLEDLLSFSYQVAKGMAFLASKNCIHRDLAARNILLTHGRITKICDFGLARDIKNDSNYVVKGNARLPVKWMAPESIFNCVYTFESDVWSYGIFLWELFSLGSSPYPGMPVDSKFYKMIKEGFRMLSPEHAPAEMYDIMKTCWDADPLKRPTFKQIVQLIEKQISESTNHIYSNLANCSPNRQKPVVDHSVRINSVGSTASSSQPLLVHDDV
UniProt Q6P3R8, sequence (whole entry, looked up): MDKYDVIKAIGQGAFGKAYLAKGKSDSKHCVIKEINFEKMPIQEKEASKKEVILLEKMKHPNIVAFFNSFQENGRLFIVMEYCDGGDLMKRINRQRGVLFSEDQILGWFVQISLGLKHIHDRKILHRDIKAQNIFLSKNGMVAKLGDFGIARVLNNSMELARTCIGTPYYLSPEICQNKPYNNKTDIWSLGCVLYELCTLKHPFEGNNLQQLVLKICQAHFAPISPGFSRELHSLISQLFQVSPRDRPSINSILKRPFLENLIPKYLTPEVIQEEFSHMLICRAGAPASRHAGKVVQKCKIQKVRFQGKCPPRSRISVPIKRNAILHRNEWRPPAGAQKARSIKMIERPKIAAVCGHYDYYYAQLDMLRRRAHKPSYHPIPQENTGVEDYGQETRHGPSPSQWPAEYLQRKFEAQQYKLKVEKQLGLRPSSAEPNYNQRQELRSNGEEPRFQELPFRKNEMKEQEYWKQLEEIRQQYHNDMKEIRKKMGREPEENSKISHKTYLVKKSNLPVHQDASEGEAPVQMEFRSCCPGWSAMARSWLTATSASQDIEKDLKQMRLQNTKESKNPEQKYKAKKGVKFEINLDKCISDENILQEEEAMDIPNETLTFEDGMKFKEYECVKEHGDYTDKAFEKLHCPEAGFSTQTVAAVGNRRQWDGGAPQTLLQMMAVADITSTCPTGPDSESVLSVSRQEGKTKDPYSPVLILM
UniProt O14965, sequence (whole entry, looked up): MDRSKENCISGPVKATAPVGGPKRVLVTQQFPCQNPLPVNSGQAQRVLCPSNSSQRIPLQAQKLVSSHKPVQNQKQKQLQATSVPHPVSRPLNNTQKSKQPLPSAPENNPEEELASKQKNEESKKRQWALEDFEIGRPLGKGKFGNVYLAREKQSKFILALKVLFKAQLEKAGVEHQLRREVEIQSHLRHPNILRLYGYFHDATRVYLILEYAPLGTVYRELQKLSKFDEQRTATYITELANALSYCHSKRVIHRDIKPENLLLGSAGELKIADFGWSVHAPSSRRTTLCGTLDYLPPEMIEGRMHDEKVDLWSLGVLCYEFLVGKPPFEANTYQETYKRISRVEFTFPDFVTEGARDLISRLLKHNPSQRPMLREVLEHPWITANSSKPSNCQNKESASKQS
UniProt P51617, sequence (whole entry, looked up): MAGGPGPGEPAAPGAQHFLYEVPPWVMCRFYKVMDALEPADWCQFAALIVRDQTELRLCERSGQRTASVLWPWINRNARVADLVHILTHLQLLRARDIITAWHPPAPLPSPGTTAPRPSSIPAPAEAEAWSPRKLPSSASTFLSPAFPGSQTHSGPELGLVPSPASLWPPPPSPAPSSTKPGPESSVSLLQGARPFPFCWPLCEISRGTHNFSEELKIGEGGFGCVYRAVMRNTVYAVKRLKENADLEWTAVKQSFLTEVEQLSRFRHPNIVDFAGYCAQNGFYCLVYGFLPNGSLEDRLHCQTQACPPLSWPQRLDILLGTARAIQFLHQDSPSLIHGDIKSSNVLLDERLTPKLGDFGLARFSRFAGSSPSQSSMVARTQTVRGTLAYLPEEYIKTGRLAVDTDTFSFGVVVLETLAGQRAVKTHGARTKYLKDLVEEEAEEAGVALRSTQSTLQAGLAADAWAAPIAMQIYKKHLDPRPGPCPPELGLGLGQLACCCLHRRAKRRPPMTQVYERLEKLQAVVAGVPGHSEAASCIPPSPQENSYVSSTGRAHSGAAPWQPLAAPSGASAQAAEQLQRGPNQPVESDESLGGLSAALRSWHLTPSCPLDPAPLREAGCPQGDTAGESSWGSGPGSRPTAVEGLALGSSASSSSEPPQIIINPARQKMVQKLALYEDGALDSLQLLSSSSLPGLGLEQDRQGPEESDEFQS
UniProt P49336, sequence (whole entry, looked up): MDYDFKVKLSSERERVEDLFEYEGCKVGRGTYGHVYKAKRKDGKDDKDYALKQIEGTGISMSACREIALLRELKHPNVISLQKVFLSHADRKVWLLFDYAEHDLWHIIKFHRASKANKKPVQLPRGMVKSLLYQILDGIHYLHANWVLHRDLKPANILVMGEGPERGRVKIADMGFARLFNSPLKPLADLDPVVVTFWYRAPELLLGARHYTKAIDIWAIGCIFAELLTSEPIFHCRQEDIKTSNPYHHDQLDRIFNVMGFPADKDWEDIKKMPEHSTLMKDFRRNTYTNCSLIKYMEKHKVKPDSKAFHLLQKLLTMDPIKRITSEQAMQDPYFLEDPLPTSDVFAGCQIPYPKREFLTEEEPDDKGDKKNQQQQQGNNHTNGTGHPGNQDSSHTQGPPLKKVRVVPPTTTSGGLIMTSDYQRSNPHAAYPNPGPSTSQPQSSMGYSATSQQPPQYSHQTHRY

Study 1
Target: Dual specificity tyrosine-phosphorylation-regulated kinase 1A (DYRK1A, Homo sapiens, UniProt Q13627)
Read-out: enzyme activity
Mode: inhibitor
Tested at: 0.5 µM
Baseline: control
For `c1ccc(-c2n[nH]c3c2oc2ccccc23)cc1`, the remaining activity was 114%.
`O=C1NC(=O)c2c1c1c3ccccc3[nH]c1c1[nH]c3cc(Br)ccc3c21` gave a remaining activity of 84%.
For `CCCNC(=O)Nc1ccc(Oc2ncnc3cc(OC)c(OC)cc23)cc1Cl`, the remaining activity was 96.9%.
`O=C1Nc2ccc(Br)cc2/C1=C/c1cc2c([nH]1)CCCC2` gave a remaining activity of 87.1%.
The remaining activity of `N#Cc1cnc2cnc(NCc3cccnc3)cc2c1Nc1ccc(F)c(Cl)c1` is reported as 52.7%.
`O=c1cc(N2CCOCC2)oc2c(-c3ccccc3)cccc12` gave a remaining activity of 97.3%.
For `CCCCc1c(-c2ccc(OC)cc2)[nH]c2nccnc12`, the remaining activity was 102%.
The remaining activity of `O=C1Nc2ccccc2/C1=C\c1c(Cl)[nH]c2ccccc12` is reported as 107%.
`Oc1cccc(-c2nc(N3CCOCC3)c3oc4ncccc4c3n2)c1` gave a remaining activity of 94.3%.
For `Cc1cc(Nc2cc(N3CCN(C)CC3)nc(Sc3ccc(NC(=O)C4CC4)cc3)n2)[nH]n1`, the remaining activity was 98.4%.
The remaining activity of `Cc1ccc(S(=O)(=O)/C=C/C#N)cc1` is reported as 107%.
`O=Nc1c(-c2c(O)[nH]c3cc(Br)ccc23)[nH]c2ccccc12` has a remaining activity of 101%.

Study 2
Structure (SMILES): Cn1nc(C(=O)NCc2ccc(C(=O)O)cc2)cc1-c1ccc2[nH]ccc2c1
Read-out: cell-free assay
Technique: competition with immobilised ligand
Tested at: 0.1 µM
The remaining binding was 98% (Macrophage colony-stimulating factor 1 receptor, autoinhibited (CSF1R, Homo sapiens, UniProt P07333)).
Tyrosine-protein kinase Blk (BLK, Homo sapiens, UniProt P51451) — remaining binding: 100%.
For Aurora kinase A (AURKA, Homo sapiens, UniProt O14965): remaining binding read 100%.
For Phosphatidylinositol 5-phosphate 4-kinase type-2 gamma (PIP4K2C, Homo sapiens, UniProt Q8TBX8): remaining binding read 63%.
The remaining binding was 89% (MAP kinase-activated protein kinase 5 (MAPKAPK5, Homo sapiens, UniProt Q8IW41)).
Dual specificity protein kinase CLK3 (CLK3, Homo sapiens, UniProt P49761) — remaining binding: 95%.
For Serine/threonine-protein kinase SIK2 (SIK2, Homo sapiens, UniProt Q9H0K1): remaining binding read 90%.
Serine/threonine-protein kinase Nek5 (NEK5, Homo sapiens, UniProt Q6P3R8) — remaining binding: 48%.
It gave 96% for remaining binding (Ephrin type-B receptor 6 (EPHB6, Homo sapiens, UniProt O15197)).
Tyrosine-protein kinase Mer (MERTK, Homo sapiens, UniProt Q12866) — remaining binding: 40%.
It gave 100% for remaining binding (Serine/threonine-protein kinase WNK4 (WNK4, Homo sapiens, UniProt Q96J92)).
Epidermal growth factor receptor (EGFR, Homo sapiens, UniProt P00533, L858R) — remaining binding: 100%.
The remaining binding was 93% (Interleukin-1 receptor-associated kinase 1 (IRAK1, Homo sapiens, UniProt P51617)).
The remaining binding was 100% (Cyclin-dependent kinase 14 (CDK14, Homo sapiens, UniProt O94921)).
It gave 100% for remaining binding (Testis-specific serine/threonine-protein kinase 1 (TSSK1B, Homo sapiens, UniProt Q9BXA7)).
Mast/stem cell growth factor receptor Kit (KIT, Homo sapiens, UniProt P10721, D816H) — remaining binding: 81%.
For Cyclin-dependent kinase 8 (CDK8, Homo sapiens, UniProt P49336): remaining binding read 100%.

Study 3
Structure (SMILES): CC(=O)N[C@@H](Cc1c[nH]c2ccccc12)C(=O)N[C@@H](CCC(=O)C=[N+]=[N-])C(=O)OC(C)C
Technique: UPLC-MS/MS metabolomics
Species: C57BL/6 CES1-/- mice, EL4 tumour
Sample: EL4 tumour
Route: subcutaneous
Dose: 0.3 mg/kg/day DON equivalent
Time: 5 days
Setting: normalised to tissue mass
The peak intensity was 2.4e+08 a.u. and 2.15e+08 a.u. and 2.03e+08 a.u. and 1.69e+08 a.u. and 1.85e+08 a.u. and 1.66e+08 a.u. (measured: N6,N6,N6-trimethyllysine).
measured: N6-carboxymethyllysine — peak intensity: 2.96e+06 a.u. and 1.73e+06 a.u. and 2.34e+06 a.u. and 2.46e+06 a.u. and 2.37e+06 a.u. and 1.71e+06 a.u.
measured: UMP — peak intensity: 8.81e+06 a.u. and 3.1e+06 a.u. and 9.49e+06 a.u. and 1.08e+07 a.u. and 3.04e+07 a.u. and 2.81e+07 a.u.
The peak intensity was 66400 a.u. and 57100 a.u. and 77100 a.u. and 65600 a.u. and 64500 a.u. and 38600 a.u. (measured: TMP).
It gave 8.38e+07 a.u. and 1.16e+08 a.u. and 8.74e+07 a.u. and 1.1e+08 a.u. and 9.5e+07 a.u. and 8.3e+07 a.u. for peak intensity (measured: N6,N6-dimethyllysine).
For measured: S-1-pyrroline-5-carboxylate: peak intensity read 1.3e+06 a.u. and 2.49e+06 a.u. and 2.05e+06 a.u. and 1.86e+06 a.u. and 2.33e+06 a.u. and 1.74e+06 a.u.
For measured: cis/trans-aconitate: peak intensity read 2.59e+06 a.u. and 1.26e+06 a.u. and 2.68e+06 a.u. and 1.06e+06 a.u. and 2.27e+06 a.u. and 1.19e+06 a.u.
measured: UDP-galactose — peak intensity: 1.33e+06 a.u. and 4.44e+06 a.u. and 4.93e+06 a.u. and 3.3e+06 a.u. and 1.41e+06 a.u. and 918000 a.u.
The peak intensity was 7.84e+06 a.u. and 4.56e+06 a.u. and 4.68e+06 a.u. and 6.64e+06 a.u. and 3.59e+06 a.u. and 5.17e+06 a.u. (measured: N6-acetyllysine).
It gave 55500 a.u. and 36800 a.u. and 34500 a.u. and 57800 a.u. and 61700 a.u. and 47300 a.u. for peak intensity (measured: S-adenosylhomocysteine).
measured: O-methyltyrosine — peak intensity: 495000 a.u. and 939000 a.u. and 501000 a.u. and 877000 a.u. and 747000 a.u. and 958000 a.u.

Single results of other studies
Target: WD repeat-containing protein 5 (WDR5, Homo sapiens, UniProt P61964)
Technique: SPR
Tested at: concentration not given
The binding of `C[C@@H]1CN(c2ccc(-c3cc(C(=O)NCCOCCOCCOCCOCCOCCOCCNC(=O)/C=C/c4[nH]cc(C(=O)N[C@@H](CC(N)=O)c5ccc(F)c(Cl)c5)c4-c4ccc(Cl)cc4F)ccc3F)cc2NC(=O)c2ccc(F)cc2C(F)(F)F)C[C@H](C)N1C` is reported as 20.7%.
With `C[C@@H]1CN(c2ccc(-c3cc(C(=O)NCCOCCOCCOCCOCCNC(=O)Cn4cc(-c5[nH]cc(C(=O)N[C@@H](CC(N)=O)c6ccc(F)c(Cl)c6)c5-c5ccc(Cl)cc5F)cn4)ccc3F)cc2NC(=O)c2c[nH]c(=O)cc2C(F)(F)F)C[C@H](C)N1C` the binding was 40.9%.
